Measured values collected from several papers.
Each line is one published result; not all experiments were run side by side. Values joined by “and” are separate records of one study, mostly repeats; a detail may differ.

Compound | target or system | assay | system | setting | quantity | value
O=c1c(O)c(-c2cc(O)c(O)c(O)c2)oc2cc(O)cc(O)c12 | Severe acute respiratory syndrome coronavirus 2 | antiviral activity | Huh-7 | 96 h | EC50 | > 100 µM
CNC(=O)[C@@H](NC(=O)[C@H](CC(C)C)[C@H](O)C(=O)NO)C(C)(C)C | snake venom metalloproteinase | proteolytic activity, inhibitor | Daboia russelii, venom MP | added: azocasein | IC50 | 1.5 µM and 1.52 µM
CCCN1CCN(CCCNC(=O)c2cc3c(Cl)nc4ccccc4c3s2)CC1 | SARS-CoV-2 | cytopathic effect | USA_WA1/2020 |  | AC50 | 10 µM
COc1ccc2cc1Oc1ccc(cc1)C[C@H]1c3c(cc4c(c3Oc3cc5c(cc3OC)CCN(C)[C@@H]5C2)OCO4)CCN1C | Severe acute respiratory syndrome coronavirus 2 | viral replication | Vero C1008, USA_WA1/2020 | 72 h | EC50 | 1.41 µM
CC[C@H]1CN2CCc3cc(OC)c(OC)cc3[C@@H]2C[C@@H]1C[C@H]1NCCc2cc(OC)c(OC)cc21 | Severe acute respiratory syndrome coronavirus 2 | viral replication, inhibitor, qPCR | Vero C1008 | 24 h | EC50 | 0.00771 µM
Nc1ncnc2c([C@@H]3N[C@H](CO)[C@@H](O)[C@H]3O)c[nH]c12 | Marburg virus | viral replication | HeLa, Angola | 3.1 µM | inhibition | 34%
CCCCOc1cc(C(=O)NCCN(CC)CC)c2ccccc2n1 | Severe acute respiratory syndrome coronavirus 2 | cytopathic effect, inhibitor |  |  | EC50 | 63.2 µM
CC(CN(C)C)CN1c2ccccc2CCc2ccccc21 (stereo not shown) | Severe acute respiratory syndrome coronavirus 2 | viral replication | Vero C1008, USA_WA1/2020 | 72 h | EC50 | 20.5 µM
Cn1cnc(Cn2c(=O)[nH]/c(=N\c3cc4cn(C)nc4cc3Cl)n(Cc3cc(F)c(F)cc3F)c2=O)n1 |  |  | human, mild renal impairment | oral, 375 mg, decreased GFR TEAE, severe severity | patients with adverse event | 0%
Cc1c(O)cccc1C(=O)N[C@@H](CSc1ccccc1)[C@H](O)CN1C[C@H]2CCCC[C@H]2C[C@H]1C(=O)NC(C)(C)C | Severe acute respiratory syndrome coronavirus 2 | cytopathic effect, inhibitor |  |  | EC50 | 4.2 µM
Nc1ncnc2c1ncn2[C@@H]1O[C@H](C[C@@H](N)CC[C@H](N)C(=O)O)[C@@H](O)[C@H]1O | Severe acute respiratory syndrome coronavirus 2 | antiviral activity | Huh-7 | 96 h | EC50 | > 100 µM
CC(C)(C)OC(=O)N[C@H]1CCCCC/C=C\[C@@H]2C[C@@]2(C(=O)NS(=O)(=O)C2CC2)NC(=O)[C@@H]2C[C@@H](OC(=O)N3Cc4cccc(F)c4C3)CN2C1=O | Severe acute respiratory syndrome coronavirus 2 | viral replication, inhibitor | Vero C1008 |  | EC50 | 87 µM
CCCCCCCCCCCCCCCCOCCCOP(=O)(O)OC[C@H]1O[C@@](C#N)(c2ccc3c(N)ncnn23)[C@H](O)[C@@H]1O | Severe acute respiratory syndrome coronavirus 2 | viral replication, inhibitor, qPCR | human | 48 h | EC50 | 0.35 µM
CC[C@@H]1C[C@]1(NC(=O)[C@@H]1C[C@@H]2CN1C(=O)[C@H](C(C)(C)C)NC(=O)OCC(C)(C)CCCCc1cccc3c1CN(C3)C(=O)O2)C(=O)NS(=O)(=O)C1CC1 | Severe acute respiratory syndrome coronavirus 2 | viral replication, inhibitor | Vero C1008 |  | EC50 | 51 µM
Cc1cccc(/C=N/Nc2cc(N3CCOCC3)nc(OCCc3ccccn3)n2)c1 | Severe acute respiratory syndrome coronavirus 2 | viral replication, inhibitor, luciferase | Calu-3 |  | EC50 | 3.06 µM
CC[C@H]1CN2CCc3cc(OC)c(OC)cc3[C@@H]2C[C@@H]1C[C@H]1NCCc2cc(O)c(OC)cc21 | Severe acute respiratory syndrome coronavirus 2 | viral replication, inhibitor, qPCR | Vero C1008 | 24 h | EC50 | 0.0123 µM
O=c1c2ccccc2[se]n1-c1ccccc1 | Severe acute respiratory syndrome coronavirus 2 | antiviral activity | Huh-7 | 96 h | EC50 | > 100 µM
C=C[C@@H]1C[C@]1(NC(=O)[C@@H]1C[C@@H](Oc2cc(-c3csc(NC(=O)C(C)C)n3)nc3c(Br)c(OC)ccc23)CN1C(=O)[C@@H](NC(=O)OC1CCCC1)C(C)(C)C)C(=O)O | Severe acute respiratory syndrome coronavirus 2 | viral replication, inhibitor | Vero C1008 |  | EC50 | 23 µM
Oc1c(Cl)cc(Cl)c(Cl)c1Cc1c(O)c(Cl)cc(Cl)c1Cl | Severe acute respiratory syndrome coronavirus 2 | antiviral activity | Huh-7 | 96 h | EC50 | > 100 µM
CCCCN(CCCNC(=O)c1cc(Nc2cccc(SC)c2)nc2ccccc12)Cc1ccccc1 | SARS-CoV-2 | cytopathic effect | USA_WA1/2020 | round 2, 5-point | efficacy | 37.9%
CCN(CCO)CCCC(C)Nc1ccnc2cc(Cl)ccc12 (stereo not shown) | Severe acute respiratory syndrome coronavirus 2 | cytopathic effect, inhibitor |  |  | EC50 | 17.7 µM
CC(C)(C)[C@@H]1NC(=O)O[C@@H]2CCC[C@H]2OC/C=C/C(F)(F)c2nc3ccccc3nc2O[C@@H]2C[C@@H](C(=O)N[C@]3(C(=O)NS(=O)(=O)C4(C)CC4)C[C@H]3C(F)F)N(C2)C1=O | Severe acute respiratory syndrome coronavirus 2 | viral replication, inhibitor | Vero C1008 |  | EC50 | > 178 µM
C=CC(=O)Nc1cc(Nc2nccc(-c3cn(C)c4ccccc34)n2)c(OC)cc1N(C)CCN(C)C | Severe acute respiratory syndrome coronavirus 2 | viral replication | Vero C1008, USA_WA1/2020 | 72 h | EC50 | 3.98 µM
CCC(CC)COC(=O)[C@H](C)N[P@](=O)(OC[C@H]1O[C@@](C#N)(c2ccc3c(N)ncnn23)[C@H](O)[C@@H]1O)Oc1ccccc1 | Severe acute respiratory syndrome coronavirus 2 | viral replication, inhibitor | Vero C1008 |  | EC50 | 2.5 µM
CC[C@H](C)[C@H](NC(=O)[C@H](CC(C)C)NC(=O)[C@H](Cc1c[nH]c2ccccc12)NC(=O)[C@H](CCC(N)=O)NC(=O)[C@@H](NC(=O)[C@H](Cc1ccccc1)NC(=O)[C@H](C)NC(=O)[C@H](CCCCNC(=O)COCCOCCNC(=O)COCCOCCNC(=O)CC[C@H](NC(=O)CCCCCCCCCCCCCCCCCCC(=O)O)C(=O)O)NC(=O)[C@H](CCC(N)=O)NC(=O)[C@H](C)NC(=O)[C@@H](NC(=O)[C@H](CCCCN)NC(=O)[C@H](CC(=O)O)NC(=O)[C@H](CC(C)C)NC(=O)C(C)(C)NC(=O)[C@@H](NC(=O)[C@H](CO)NC(=O)[C@H](Cc1ccc(O)cc1)NC(=O)[C@H](CC(=O)O)NC(=O)[C@H](CO)NC(=O)[C@@H](NC(=O)[C@H](Cc1ccccc1)NC(=O)[C@@H](NC(=O)CNC(=O)[C@H](CCC(=O)O)NC(=O)C(C)(C)NC(=O)[C@@H](N)Cc1ccc(O)cc1)[C@@H](C)O)[C@@H](C)O)[C@@H](C)CC)[C@@H](C)CC)C(C)C)C(=O)N[C@@H](C)C(=O)NCC(=O)NCC(=O)N1CCC[C@H]1C(=O)N[C@@H](CO)C(=O)N[C@@H](CO)C(=O)NCC(=O)N[C@@H](C)C(=O)N1CCC[C@H]1C(=O)N1CCC[C@H]1C(=O)N1CCC[C@H]1C(=O)N[C@@H](CO)C(N)=O |  | measured: treatment-emergent medical device site pruritus | healthy subjects | 0.5 mg, multiple ascending dose | subjects with adverse event | 33.3%

Excerpt of the above:
Compound | target or system | assay | system | setting | quantity | value
COc1ccc2cc1Oc1ccc(cc1)C[C@H]1c3c(cc4c(c3Oc3cc5c(cc3OC)CCN(C)[C@@H]5C2)OCO4)CCN1C | Severe acute respiratory syndrome coronavirus 2 | viral replication | Vero C1008, USA_WA1/2020 | 72 h | EC50 | 1.41 µM
CC[C@H]1CN2CCc3cc(OC)c(OC)cc3[C@@H]2C[C@@H]1C[C@H]1NCCc2cc(OC)c(OC)cc21 | Severe acute respiratory syndrome coronavirus 2 | viral replication, inhibitor, qPCR | Vero C1008 | 24 h | EC50 | 0.00771 µM
Nc1ncnc2c([C@@H]3N[C@H](CO)[C@@H](O)[C@H]3O)c[nH]c12 | Marburg virus | viral replication | HeLa, Angola | 3.1 µM | inhibition | 34%
